Published values gathered from unrelated publications.
Organism: Staphylococcus aureus

SMILES	test	system	setting	MIC
CCCCCCCCCNS(=O)(=O)c1ccc(-n2nnc(C(C)=NNC(=N)N)c2C)cc1	microbial growth, broth dilution	MRSA USA300	drug-resistant strain	1 µg/mL
CCC[C@@H]1NC(=O)[C@@H]([C@@H](C)O)NC(=O)CNC(=O)[C@H](CC(=O)O)NC(=O)CNC(=O)[C@H](CC(=O)O)NC(=O)CNC(=O)[C@H]2CCCCN2C(=O)[C@@H](NC(=O)[C@H](CC(=O)O)NC(=O)/C=C/CCCCCCCCCC(C)C)CNC(=O)[C@@H]2CCCN2C1=O	–	MRSA USA300	added: Ca2+ 10 mM	4 µg/mL
CC(C)C[C@@H]1NC(=O)[C@H](C)NC(=O)[C@H](NC(=O)[C@H](CO)NC(=O)[C@@H](CCCCN)NC(=O)[C@@H](CC(C)C)NC(=O)[C@@H](N)Cc2ccccc2)[C@H](C(N)=O)OC(=O)[C@H](C)NC1=O	–	MRSA ATCC 700698	TFA salt	> 32 µg/mL
CC[C@@H]1NC(=O)[C@@H]([C@@H](C)O)NC(=O)CNC(=O)[C@H](CC(=O)O)NC(=O)CNC(=O)[C@H](CC(=O)O)NC(=O)CNC(=O)[C@H]2CCCCN2C(=O)[C@@H](NC(=O)[C@H](CC(=O)O)NC(=O)/C=C/CCCCCCCCCC(C)C)CNC(=O)[C@@H]2CCCN2C1=O	–	MRSA USA300	added: Ca2+ 10 mM	8 µg/mL
COc1ccc2ccc3c(c2c1)C=[N+]1C2CCCCC2[N+]2=Cc4ccc(C)cc4[O][Au-]21[O]3.F[P-](F)(F)(F)(F)F (centres unmarked)	bacterial growth, broth microdilution	vancomycin-intermediate	24 h	20 µM
N=C(N)NCCC[C@@H]1NC(=O)[C@H](CCCNC(=N)N)NC(=O)[C@H](CCCNC(=N)N)NC(=O)[C@H](CCCNC(=N)N)NC(=O)[C@H](Cc2c[nH]c3ccccc23)NC(=O)[C@H](CCCNC(=N)N)NC(=O)[C@H](CCCNC(=N)N)NC(=O)[C@@H](N)CCCn2cc(nn2)C[C@@H](C(N)=O)NC1=O	–	–	24 h, 37 °C, in 0.01% acetic acid	125 µg/mL
CC[C@H](C)[C@H](NC(=O)[C@H](NC(=O)[C@@H](CCC(N)=O)NC(=O)[C@@H](N)COC(=O)[C@@H](NC(=O)[C@@H](Cc1ccccc1)NC)[C@@H](C)CC)[C@@H](C)CC)C(=O)N[C@@H](CO)C(=O)N[C@H]1C(=O)N[C@@H](C)C(=O)N[C@@H](C2CCCCC2)C(=O)N[C@@H]([C@@H](C)CC)C(=O)O[C@H]1C	broth microdilution	ATCC 29213, MSSA, Mueller-Hinton broth	16 h, 37 °C	0.25 µg/mL
CN[C@@H]1[C@H](O)[C@H](NC)[C@H]2O[C@]3(O)[C@H](O[C@@H]2[C@H]1O)O[C@H](C)C[C@@]3(O)CNCc1ccc(Cl)cc1	–	MSSA ATCC 29213	–	25 to 50 µg/mL
COc1c(CC=C(C)C)c(O)cc2c1-c1oc3c(CC=C(C)C)c(O)ccc3c1CO2	–	–	–	inactive
COc1cc(/C=N/N2C(=O)c3ccccc3NC2c2cc(OC)c(O)c(OC)c2)cc(OC)c1O (centres unmarked)	microbial growth, broth dilution	–	24 h, drug-resistant strain, clinical isolate	> 256 µg/mL
CC(C)C[C@H](NC(=O)[C@H](C)NC(=O)CNC(=O)[C@@H](NC(=O)[C@@H](NC(=O)[C@H](CCCCN)NC(=O)[C@H](CCCCN)NC(=O)[C@H](CC(C)C)NC(=O)[C@H](CC(C)C)NC(=O)[C@H](CCCCN)NC(=O)[C@H](CC(C)C)NC(=O)[C@H](CC(C)C)NC(=O)[C@@H](N)CCCCN)C(C)C)C(C)C)C(=O)NCC(N)=O	–	ATCC 43300, CAMHB	18 h, 37 °C	22 µM
O=[N+]([O-])c1ccc2c(c1)C=[N+]1N3C(=[O+][Cu-2]1([Cl])[O]2)c1ccccc1NC3c1cc([N+](=O)[O-])ccc1O (centres unmarked)	broth microdilution	MRSA clinical isolate SA 3202	24 h, 37 °C	16 µg/mL
CCCN1CCNC1=[S+][Ag-3]([O][N+](=O)[O-])([P+](c1ccccc1)(c1ccccc1)c1ccccc1)[P+](c1ccccc1)(c1ccccc1)c1ccccc1	agar dilution	MTCC 740	24 h, 37 °C	50 µg/mL
CCCS[C@H]1[C@H](O)[C@@H](N)[C@@H](O[C@H]2[C@H](O[C@@H]3O[C@H](CO)[C@@H](O[C@H]4O[C@@H](CN)[C@@H](O)[C@H](O)[C@H]4N)[C@H]3O)[C@@H](O)[C@H](N)C[C@@H]2N)O[C@@H]1CO	–	methicillin-resistant, AAC(6') ANT(4',4'') APH(3')	–	2 µg/mL
CN1C(=O)[C@@H]2NC(=O)[C@@H]3NC(=O)[C@@H](c4ccc(O)cc4)NC(=O)[C@H](NC(=O)C(NCc4ccc(B(O)O)cc4)c4ccc(O)cc4)Cc4c[nH]c5cc(ccc45)-c4cc3cc(c4O)Oc3ccc(cc3)C[C@H]1C(=O)N[C@@H](C(=O)O)c1ccc(O)c(c1)Oc1ccc2cc1 (some centres unmarked)	–	ATCC 33591 MRSA, Mueller-Hinton broth	–	8 µg/mL
CCCCCCCCCCCCCCCCCCSCC1OC(OC2C(N)CC(N)C(OC3OC(CN)C(O)CC3N)C2O)C(O)C(N)C1O (centres unmarked)	–	NorA	–	> 150 µg/mL
CCCO[C@H]1[C@H](O)[C@@H](N)[C@@H](O[C@H]2[C@H](O[C@@H]3O[C@H](CO)[C@@H](O[C@H]4O[C@@H](CN)[C@@H](O)[C@H](O)[C@H]4N)[C@H]3O)[C@@H](O)[C@H](N)C[C@@H]2N)O[C@@H]1CO	broth microdilution	MRSA isolate AG 045	–	8 µg/mL
CC[C@H](C)[C@H](NC(=O)[C@H](CCCCN)NC(=O)[C@H](CC(N)=O)NC(=O)[C@H](CC(C)C)NC(=O)[C@H](Cc1ccccc1)NC(=O)[C@H](CCCCN)NC(=O)[C@H](CCCCNC(=N)N)NC(=O)[C@H](CC(C)C)NC(=O)[C@H](CC(C)C)NC(=O)[C@H](CCCCN)NC(=O)[C@H](CCCCNC(=N)N)NC(=O)[C@H](CC(C)C)NC(=O)CNC(C)=O)C(=O)N[C@@H](CCCCN)C(=O)N[C@@H](CCCCNC(=N)N)C(N)=O	broth microdilution	multidrug-resistant	–	3.12 µM
CNC(CC(C)C)C(=O)NC1C(=O)NC(CC(N)=O)C(=O)NC2C(=O)NC3C(=O)NC(C(=O)NC(C(=O)O)c4cc(O)cc(O)c4-c4cc3ccc4O)C(O)c3ccc(c(Cl)c3)Oc3cc2cc(c3OC2OC(CO)C(O)C(O)C2OC2CC(C)(NCc3ccc(-c4ccc(Cl)cc4)cc3)C(O)C(C)O2)Oc2ccc(cc2Cl)C1O (centres unmarked)	–	Sensitive ATCC 25923	–	0.08 µg/mL
CC[C@H](C)[C@H](NC(=O)[C@H](C)NC(=O)[C@H](C)NC(=O)[C@H](Cc1ccccc1)NC(=O)[C@H](C)NC(=O)CNC(=O)[C@H](Cc1ccccc1)NC(=O)[C@@H](N)Cc1ccccc1)C(=O)N[C@@H](C)C(=O)N[C@@H](CO)C(=O)N[C@@H](CC(C)C)C(=O)N[C@H](C(=O)N[C@H](C(=O)N1CCC[C@H]1C(=O)N[C@@H](CCCCN)C(=O)N[C@@H](CC(C)C)C(=O)N[C@H](C(=O)N[C@@H](CCC(=O)O)C(=O)N[C@@H](CCCCN)C(=O)N[C@H](C(=O)N[C@@H](CCCCN)C(=O)N[C@@H](CCC(N)=O)C(=O)N[C@@H](C)C(=O)N[C@@H](CCCNC(=N)N)C(N)=O)[C@@H](C)CC)[C@@H](C)CC)[C@@H](C)CC)C(C)C	broth microdilution	MRSA ATCC 33592	–	3.12 to 6.25 µM
CCC(O)CC#Cc1ccc(-n2nnc(/C(C)=N\NC(=N)N)c2C)cc1 (centres unmarked)	broth microdilution	MRSA USA300 NRS384	–	> 64 µg/mL
CC(=O)N[C@@H](CCCNC(=N)N)C(=O)N[C@@H](Cc1c[nH]c2ccccc12)C(=O)N[C@@H](CCCNC(=N)N)C(=O)N[C@@H](Cc1c[nH]c2ccccc12)C(=O)N[C@@H](Cc1c[nH]c2ccccc12)C(=O)N[C@@H](CCCCN)C(=O)N1CCC[C@H]1C(=O)N[C@H](C(N)=O)C(C)C	–	MRSA ATCC 33591, MEM medium	overnight, 37 °C	11.3 to 22.7 µM
NCCCC[C@H](NC(=O)[C@H](CCCCN)NC(=O)[C@H](Cc1ccccc1)NC(=O)[C@@H]1CCCN1C(=O)[C@H](Cc1c[nH]c2ccccc12)NC(=O)[C@H](Cc1c[nH]c2ccccc12)NC(=O)[C@H](Cc1c[nH]c2ccccc12)NC(=O)[C@@H]1CCCN1C(=O)[C@H](Cc1ccccc1)NC(=O)[C@H](CCCCN)NC(=O)[C@@H](N)CCCCN)C(N)=O	–	MSSA RN 4220, RPMI medium	24 h, 37 °C	15 µM
CC[C@H](C)[C@H](N)C1=N[C@H](C(=O)N[C@@H](CC(C)C)C(=O)N[C@H](CCC(=O)O)C(=O)N[C@H](C(=O)N[C@H]2CCCCNC(=O)[C@H](CC(N)=O)NC(=O)[C@@H](CC(=O)O)NC(=O)[C@H](Cc3c[nH]cn3)NC(=O)[C@@H](Cc3ccccc3)NC(=O)[C@H](Cc3ccccc3)NC(=O)[C@@H](CCCN)NC2=O)[C@@H](C)CC)CS1	–	USA300 MRSA	18 h, 37 °C, added: ZnSO4 0.3 mM	2 µg/mL
CCCCCCCCCCCCC(=O)O.O=C1CCCC2C3CCCN4CCCC(CN12)C34 (centres unmarked)	bacterial growth, broth dilution	ATCC 29213	–	inactive
CCCCCCCCCCN1C(=O)/C(=N\NC(=N)N)c2cc(C)ccc21	broth microdilution	BAA41 MRSA	18 h, 37 °C	3 µg/mL
CC(C)C[C@@H]1NC(=O)[C@H](C)NC(=O)[C@H](C)NC(=O)[C@H](NC(=O)[C@H](CO)NC(=O)[C@@H](CCCCN)NC(=O)[C@@H](CC(C)C)NC(=O)[C@@H](N)Cc2ccccc2)[C@H](C(N)=O)OC1=O	–	MSSA ATCC 29213	TFA salt	4 µg/mL
CCCCCCCC(=O)NCCCC[C@@H]1NC(=O)[C@H](CCCNC(=N)N)NC(=O)[C@H](CCCNC(=N)N)NC(=O)[C@H](CCCNC(=N)N)NC(=O)[C@H](CCCNC(=N)N)NC(=O)[C@H](CCCNC(=N)N)NC1=O	broth microdilution	MRSA ATCC 43300	37 °C	129 µg/mL
c1ccc(CCNC2CCCc3c2[nH]c2ccc(C4CCCCC4)cc32)cc1 (centres unmarked)	broth microdilution	Mu50 VISA, cation-adjusted Mueller-Hinton broth	–	2 µg/mL

For quick reference, copied from above:
SMILES	test	system	setting	MIC
CCCCCCCCCCN1C(=O)/C(=N\NC(=N)N)c2cc(C)ccc21	broth microdilution	BAA41 MRSA	18 h, 37 °C	3 µg/mL
CC(C)C[C@@H]1NC(=O)[C@H](C)NC(=O)[C@H](C)NC(=O)[C@H](NC(=O)[C@H](CO)NC(=O)[C@@H](CCCCN)NC(=O)[C@@H](CC(C)C)NC(=O)[C@@H](N)Cc2ccccc2)[C@H](C(N)=O)OC1=O	–	MSSA ATCC 29213	TFA salt	4 µg/mL
CCCCCCCC(=O)NCCCC[C@@H]1NC(=O)[C@H](CCCNC(=N)N)NC(=O)[C@H](CCCNC(=N)N)NC(=O)[C@H](CCCNC(=N)N)NC(=O)[C@H](CCCNC(=N)N)NC(=O)[C@H](CCCNC(=N)N)NC1=O	broth microdilution	MRSA ATCC 43300	37 °C	129 µg/mL
